Measurements pooled from the literature.
Compare with care: the assays were run in different laboratories. Values joined by “and” are separate records of one study, mostly repeats; a detail may differ.
Target: Protein-tyrosine kinase 2-beta (PTK2B, Homo sapiens, UniProt Q14289)

With Cc1cnc2nc1Nc1cccc(c1)COC/C=C/COCc1cc(ccc1OCCN1CCOCC1)N2 the remaining binding was 84% (binding, competition with immobilised ligand; 0.1 µM).
COc1cc(Nc2nc(C)cc(-c3cnn4nc(OC)ccc34)n2)cc(C(F)(F)F)c1 has a remaining activity of 99% (inhibitor; 1 µM, PYK2; baseline: control).
The inhibition of C=CC(=O)Nc1cccc(-c2cnc3[nH]cc(C(=O)NC(C)(C)C)c3n2)c1 is reported as 10% and 7% (kinase activity; 0.1 µM).
CCn1cc(C(=O)O)c(=O)c2c(N)c(F)c(NC3CCCCC3)cc21 gave an inhibition of -0.9% (kinase activity; 0.1 µM, added: ATP at Km).
The remaining binding of CCN1CCN(Cc2ccc(C(=O)Nc3ccc(C)c(NCc4cnc5[nH]ccc5c4OC)c3)cc2C(F)(F)F)CC1 is reported as 25% (binding, competition with immobilised ligand; 1 µM).
The remaining activity of COc1c(OCCCN2CCOCC2)ccc2c1N=C(NC(=O)c1cnc(N)nc1)N1CCN=C21 is reported as 106% (kinase activity, inhibitor; 1 µM; baseline: untreated control).
The inhibition of CN1CC[C@@H](COc2cnc(C#N)cc2-c2ccn3nc(NC(=O)C4CC4)cc3c2)C1 is reported as 1% (enzyme activity, inhibitor; 1 µM).
COc1ccc(NC(=O)Nc2ccc3c(c2)C(=O)N(C(C)CO)CC(C)C(CN(C)Cc2ccc4c(c2)OCO4)O3)cc1 (stereo not shown) has a remaining activity of 99% (kinase activity, KinaseProfiler; 0.03 µM, species human; baseline: control).
For CN1CCN(Cc2ccc(-c3ccc(CO[C@H]4CCC[C@@H]4NC(=O)c4cc(-c5cnn(C)c5)cnc4N)cc3)cc2)CC1, the inhibition was 4% (enzyme activity, inhibitor; 0.1 µM).
For C=CC(=O)N1CCCC(n2c(=O)c3ncccc3n(Cc3ccc(Oc4ccccc4)cc3)c2=O)C1 (stereo not shown), the remaining binding was 100% (cell-free assay, competition with immobilised ligand; 1 µM).
For NC(=O)C[C@H]1CCc2sc3ncnc(O[C@H]4CC[C@H](N5CCOCC5)CC4)c3c21, the inhibition was 6% (enzyme activity, inhibitor; 10 µM).
The inhibition of Cc1cccc(O[C@H]2CCC[C@@H](C(C)CNCc3ccncc3)C2)c1 (relative stereo) is reported as 6% (enzyme activity, inhibitor; 1 µM).
CNC1C[S+]2CC[S+]3CC[S+](C1)[Ru-4]321([N]=C=S)[n]2c3ccc(OC)cc3c3c4c(c5cc(F)c[n+]1c5c32)C(=O)NC4=O (stereo not shown) has a remaining binding of 98% (KinomeScan; 0.1 µM; baseline: untreated).
O=C(Cc1ccc(OCc2ccccc2)cc1)NC1(C(=O)O)CCN(C(=O)c2ccc(-c3cccc(Cl)c3)cc2)CC1 — result for “activity vs control”: 91% (enzyme activity, inhibitor; 10 µM).
Under “activity vs control”, CNC(=O)C[C@H](Cc1ccc(C#N)cc1)NC(=O)c1cc(-c2ccc(CN[C@H](C)c3ccc(C)cc3)o2)ccc1Cl is recorded as 114% (enzyme activity, inhibitor; 1 µM).
COc1c(Cl)cccc1Nc1c(-c2ccncc2C#C[C@@]2(C)CCCN2C(=O)/C=C/CN(C)C)[nH]c2c1C(=O)NCC2 gave a remaining binding of 93% (cell-free assay, competition with immobilised ligand; 3 µM).

A few entries again:
The inhibition of C=CC(=O)Nc1cccc(-c2cnc3[nH]cc(C(=O)NC(C)(C)C)c3n2)c1 is reported as 10% and 7% (kinase activity; 0.1 µM).
